Measurements gathered from unrelated publications.
Protocols differ between the studies behind these lines. ± marks the error that the study gave.
Sequence of UniProt P42684 (whole entry, looked up): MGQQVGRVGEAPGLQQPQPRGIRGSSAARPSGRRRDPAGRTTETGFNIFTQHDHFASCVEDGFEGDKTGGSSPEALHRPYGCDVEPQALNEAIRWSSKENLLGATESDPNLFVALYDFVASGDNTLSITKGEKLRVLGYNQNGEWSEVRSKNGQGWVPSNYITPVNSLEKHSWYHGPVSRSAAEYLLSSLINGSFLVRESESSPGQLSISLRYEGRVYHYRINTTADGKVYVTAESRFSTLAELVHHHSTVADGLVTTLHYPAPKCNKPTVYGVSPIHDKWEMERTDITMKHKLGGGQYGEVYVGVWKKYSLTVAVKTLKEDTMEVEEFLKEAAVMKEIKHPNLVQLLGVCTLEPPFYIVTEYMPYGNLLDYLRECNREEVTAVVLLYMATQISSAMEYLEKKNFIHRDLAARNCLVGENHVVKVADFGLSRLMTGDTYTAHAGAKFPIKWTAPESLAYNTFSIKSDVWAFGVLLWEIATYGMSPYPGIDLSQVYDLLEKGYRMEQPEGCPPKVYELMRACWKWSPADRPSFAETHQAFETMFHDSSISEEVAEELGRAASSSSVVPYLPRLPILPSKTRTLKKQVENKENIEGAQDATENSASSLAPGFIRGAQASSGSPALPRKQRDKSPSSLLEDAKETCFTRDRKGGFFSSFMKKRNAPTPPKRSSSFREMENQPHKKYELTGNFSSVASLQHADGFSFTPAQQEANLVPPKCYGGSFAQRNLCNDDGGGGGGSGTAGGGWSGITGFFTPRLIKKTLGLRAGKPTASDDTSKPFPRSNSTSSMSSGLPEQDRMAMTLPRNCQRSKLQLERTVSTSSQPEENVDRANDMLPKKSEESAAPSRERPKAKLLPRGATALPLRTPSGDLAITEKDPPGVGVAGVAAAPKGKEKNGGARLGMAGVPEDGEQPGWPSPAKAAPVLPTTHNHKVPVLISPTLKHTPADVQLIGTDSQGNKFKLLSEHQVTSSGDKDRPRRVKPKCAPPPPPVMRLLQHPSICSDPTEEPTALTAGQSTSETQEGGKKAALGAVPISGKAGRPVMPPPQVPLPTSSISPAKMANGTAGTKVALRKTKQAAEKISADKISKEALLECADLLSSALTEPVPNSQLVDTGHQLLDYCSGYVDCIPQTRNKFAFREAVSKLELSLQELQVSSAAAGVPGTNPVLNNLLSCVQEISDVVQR

SMILES	target or system	test	test system	conditions	how to read	quantity	result
CN(Cc1ccccc1)C(=O)CN1CCN(CC(=O)[O-])CCN(CC(=O)N(C)Cc2ccccc2)CC1.[18F-].[Sc+3]			mouse, blood	intravenous, 1 h		tracer uptake	0.11 %ID/g
Cc1ncsc1-c1ccc(C(C)NC(=O)C2CC(O)CN2C(=O)C(NC(=O)CCCCCCCCCCN2CCCC(Nc3ncc(Cl)c(Nc4ccccc4S(=O)(=O)C(C)C)n3)C2)C(C)(C)C)cc1 (stereo not shown)	22Rv1	RNA-seq, refers to: TCAF1 mRNA		concentration not given	reference: DMSO	log2 fold change	-1.23
Cc1nc(N)nc2c1C(=O)N[C@@H](c1ccc(F)cc1-c1cccc(O[11CH3])n1)C2		ex vivo biodistribution	mice, U87 subcutaneous xenograft, intestines	60 min post-injection, baseline, vehicle pre-treatment		tracer uptake	19.3 ± 1.3 %ID
CN(O)C(=O)CCC(=O)NCCCN(CCCCN(CCCNC(=O)CCC(=O)N(C)O)C(=O)CCC(=O)N(C)O)C(=O)CCC(=O)N(C)O.[89Zr]			mouse, spleen	4 h		tracer uptake	0.05 %ID/g
CC(C)OCCOCc1ccc(OCC(O)CN(N=O)C(C)C)cc1 (stereo not shown)	Escherichia coli	Ames test	WP2 uvrA	15.8 µg/plate, 30 % hamster S9	reference: solvent control	revertant fold increase	1.2 fold
CN(Cc1ccccc1)C(=O)CN1CCN(CC(=O)[O-])CCN(Cc2cccc(C(=O)[O-])n2)CC1.[44Sc+3]			mouse, bone	intravenous, 1 h		tracer uptake	0.49 %ID/g
COC1CN([C@H]2CC[C@H]([C@@]3(C)Oc4c(Cl)cc(C(=O)NCc5c(SC)cc(C)[nH]c5=O)c(C)c4O3)CC2)C1		RNA-seq, refers to: HPSE mouse homolog	mouse, HT-1376 xenograft, whole blood	dose not given	reference: vehicle	log2 fold change	0.395
CN(Cc1ccccc1)C(=O)CN1CCN(CC(=O)[O-])CCN(CC(=O)[O-])CC1.[18F-].[Sc+3]			mouse, spleen	intravenous, 1 h		tracer uptake	0.17 %ID/g
CN([O-])C(=O)CN1CCN(CC(=O)N(C)[O-])CCN(Cc2ccccn2)CC1.[89Zr+4]			mouse, muscle	intravenous, 4 h		tracer uptake	0.69 %ID/g
Cc1nn(-c2cccc(N)c2)c(=O)c2cnc(Nc3ccc(N4CCNCC4)cc3)nc12	ABL2 (Homo sapiens, UniProt P42684)	enzyme activity, inhibitor				IC50	1620 nM
[123I]c1ccc2nc(-c3ccc(-n4ccnn4)nc3)cn2c1			male Wistar rat, muscle	intravenous, 4 MBq, 30 min		tracer uptake	0.101 %ID/g
COc1ccc2c(c1)C(C)(C)C(/C=C/C1=C(Oc3ccc(C(=O)NCCCCOc4cc(CN(Cc5ccccn5)Cc5ccccn5)cc(CN(Cc5ccccn5)Cc5ccccn5)c4)cc3)C(=C/C=C3/N(CCCCS(=O)(=O)[O-])c4ccc(OC)cc4C3(C)C)CCC1)=[N+]2CCCCS(=O)(=O)[O-].O=[N+]([O-])[O-].O=[N+]([O-])[O-].[99Tc+].[C-]#[O+].[C-]#[O+].[C-]#[O+].[Zn+2]			mouse, pancreas	12 h		tracer uptake	0.72 %ID/g
CC(C(=O)O)n1nc(Cn2cc3cc(OCC[18F])c(Cl)cc3n2)c2ccccc2c1=O (racemic)			rat, muscle	5 min		tracer uptake	0.06 %ID/g

A few entries again:
SMILES	target or system	test	test system	conditions	how to read	quantity	result
CC(C(=O)O)n1nc(Cn2cc3cc(OCC[18F])c(Cl)cc3n2)c2ccccc2c1=O (racemic)			rat, muscle	5 min		tracer uptake	0.06 %ID/g
